Assay results from different studies.
Every numbered part comes from another study and shows a few of its results, in no order. Values joined by “and” are separate records of one study, mostly repeats; a detail may differ.
UniProt P10721, sequence (whole entry, unmodified, looked up): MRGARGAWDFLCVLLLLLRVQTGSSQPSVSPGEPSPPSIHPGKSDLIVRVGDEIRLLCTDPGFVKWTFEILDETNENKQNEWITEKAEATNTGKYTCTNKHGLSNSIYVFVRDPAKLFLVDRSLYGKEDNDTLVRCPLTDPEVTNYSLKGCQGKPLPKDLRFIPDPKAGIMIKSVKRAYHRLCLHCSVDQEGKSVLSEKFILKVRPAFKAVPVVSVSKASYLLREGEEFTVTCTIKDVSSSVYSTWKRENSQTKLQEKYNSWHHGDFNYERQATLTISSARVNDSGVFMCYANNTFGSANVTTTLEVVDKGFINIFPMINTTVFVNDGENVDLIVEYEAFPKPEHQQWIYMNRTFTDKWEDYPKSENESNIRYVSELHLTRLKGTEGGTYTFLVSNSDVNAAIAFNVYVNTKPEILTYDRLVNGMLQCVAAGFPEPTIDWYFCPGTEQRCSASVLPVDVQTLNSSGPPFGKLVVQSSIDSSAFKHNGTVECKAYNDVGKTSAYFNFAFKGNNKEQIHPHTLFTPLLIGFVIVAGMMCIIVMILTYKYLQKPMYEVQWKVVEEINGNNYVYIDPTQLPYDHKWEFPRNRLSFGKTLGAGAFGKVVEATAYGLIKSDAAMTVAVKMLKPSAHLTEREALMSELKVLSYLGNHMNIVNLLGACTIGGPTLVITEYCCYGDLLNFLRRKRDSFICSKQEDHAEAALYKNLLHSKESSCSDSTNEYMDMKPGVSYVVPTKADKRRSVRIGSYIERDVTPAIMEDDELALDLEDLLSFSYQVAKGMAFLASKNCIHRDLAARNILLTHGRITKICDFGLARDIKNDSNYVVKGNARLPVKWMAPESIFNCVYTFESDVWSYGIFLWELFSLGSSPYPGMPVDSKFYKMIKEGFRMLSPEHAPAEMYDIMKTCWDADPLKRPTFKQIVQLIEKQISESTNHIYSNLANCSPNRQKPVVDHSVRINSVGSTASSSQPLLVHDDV
UniProt P22455, sequence (whole entry, looked up): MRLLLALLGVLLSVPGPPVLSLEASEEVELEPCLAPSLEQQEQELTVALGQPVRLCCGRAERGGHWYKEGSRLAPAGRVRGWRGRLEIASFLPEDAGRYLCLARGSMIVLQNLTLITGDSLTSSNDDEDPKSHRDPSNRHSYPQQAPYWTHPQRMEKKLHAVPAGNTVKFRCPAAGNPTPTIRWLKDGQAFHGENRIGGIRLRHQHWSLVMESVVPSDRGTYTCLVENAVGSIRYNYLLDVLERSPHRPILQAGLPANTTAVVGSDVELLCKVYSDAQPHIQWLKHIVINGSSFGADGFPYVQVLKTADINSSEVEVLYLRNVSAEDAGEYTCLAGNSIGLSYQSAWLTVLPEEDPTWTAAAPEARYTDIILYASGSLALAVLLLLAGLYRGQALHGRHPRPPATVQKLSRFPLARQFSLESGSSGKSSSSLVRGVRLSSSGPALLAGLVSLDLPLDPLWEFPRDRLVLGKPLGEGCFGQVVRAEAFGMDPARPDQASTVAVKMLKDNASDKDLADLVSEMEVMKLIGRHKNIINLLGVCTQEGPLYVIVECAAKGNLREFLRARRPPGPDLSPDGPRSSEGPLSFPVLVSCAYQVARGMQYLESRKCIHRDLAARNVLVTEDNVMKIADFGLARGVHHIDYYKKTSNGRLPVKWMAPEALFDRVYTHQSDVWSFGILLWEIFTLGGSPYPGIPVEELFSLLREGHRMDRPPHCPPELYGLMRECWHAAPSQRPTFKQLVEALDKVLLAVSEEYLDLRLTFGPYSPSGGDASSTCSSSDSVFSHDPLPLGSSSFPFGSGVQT
UniProt O00750, sequence (whole entry, looked up): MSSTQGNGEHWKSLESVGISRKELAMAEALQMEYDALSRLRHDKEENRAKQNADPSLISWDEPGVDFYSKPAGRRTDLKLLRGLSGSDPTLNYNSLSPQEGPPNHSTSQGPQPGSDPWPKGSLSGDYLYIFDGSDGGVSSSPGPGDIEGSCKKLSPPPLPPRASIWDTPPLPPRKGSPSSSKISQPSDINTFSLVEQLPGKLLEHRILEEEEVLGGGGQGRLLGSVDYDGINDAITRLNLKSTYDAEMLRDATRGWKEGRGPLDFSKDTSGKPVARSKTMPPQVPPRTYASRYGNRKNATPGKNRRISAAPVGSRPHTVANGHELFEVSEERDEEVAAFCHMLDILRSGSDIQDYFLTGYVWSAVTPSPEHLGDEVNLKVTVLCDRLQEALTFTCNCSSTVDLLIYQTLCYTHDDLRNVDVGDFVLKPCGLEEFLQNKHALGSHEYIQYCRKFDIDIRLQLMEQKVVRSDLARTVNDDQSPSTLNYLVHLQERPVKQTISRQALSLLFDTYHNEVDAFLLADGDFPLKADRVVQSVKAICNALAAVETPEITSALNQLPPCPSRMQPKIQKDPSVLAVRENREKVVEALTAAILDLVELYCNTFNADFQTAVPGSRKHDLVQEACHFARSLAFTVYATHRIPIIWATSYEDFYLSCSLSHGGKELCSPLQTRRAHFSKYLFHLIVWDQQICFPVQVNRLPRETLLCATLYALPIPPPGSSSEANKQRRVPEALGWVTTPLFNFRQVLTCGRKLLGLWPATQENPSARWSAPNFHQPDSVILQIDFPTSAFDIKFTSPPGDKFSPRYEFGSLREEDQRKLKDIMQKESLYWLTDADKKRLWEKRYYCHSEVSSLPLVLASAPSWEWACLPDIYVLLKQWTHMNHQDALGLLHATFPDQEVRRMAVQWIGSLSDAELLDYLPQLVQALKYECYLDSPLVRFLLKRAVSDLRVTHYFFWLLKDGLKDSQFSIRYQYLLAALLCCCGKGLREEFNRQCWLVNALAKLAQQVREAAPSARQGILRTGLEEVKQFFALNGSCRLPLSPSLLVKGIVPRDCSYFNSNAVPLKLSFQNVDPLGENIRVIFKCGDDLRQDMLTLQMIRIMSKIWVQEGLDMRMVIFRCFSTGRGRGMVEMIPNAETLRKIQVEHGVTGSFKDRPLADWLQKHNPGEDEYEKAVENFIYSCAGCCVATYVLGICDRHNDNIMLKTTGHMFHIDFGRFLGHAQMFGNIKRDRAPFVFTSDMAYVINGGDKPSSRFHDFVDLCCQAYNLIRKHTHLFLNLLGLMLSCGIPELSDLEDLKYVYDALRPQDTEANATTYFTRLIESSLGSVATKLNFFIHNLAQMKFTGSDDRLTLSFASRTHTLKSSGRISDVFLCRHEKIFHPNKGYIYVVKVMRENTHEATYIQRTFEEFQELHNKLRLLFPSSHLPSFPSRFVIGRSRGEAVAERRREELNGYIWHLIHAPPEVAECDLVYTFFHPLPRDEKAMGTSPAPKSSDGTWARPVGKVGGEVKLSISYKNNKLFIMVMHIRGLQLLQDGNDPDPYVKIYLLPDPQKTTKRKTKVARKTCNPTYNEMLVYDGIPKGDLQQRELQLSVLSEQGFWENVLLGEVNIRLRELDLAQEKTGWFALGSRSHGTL
UniProt P51812, sequence (whole entry, looked up): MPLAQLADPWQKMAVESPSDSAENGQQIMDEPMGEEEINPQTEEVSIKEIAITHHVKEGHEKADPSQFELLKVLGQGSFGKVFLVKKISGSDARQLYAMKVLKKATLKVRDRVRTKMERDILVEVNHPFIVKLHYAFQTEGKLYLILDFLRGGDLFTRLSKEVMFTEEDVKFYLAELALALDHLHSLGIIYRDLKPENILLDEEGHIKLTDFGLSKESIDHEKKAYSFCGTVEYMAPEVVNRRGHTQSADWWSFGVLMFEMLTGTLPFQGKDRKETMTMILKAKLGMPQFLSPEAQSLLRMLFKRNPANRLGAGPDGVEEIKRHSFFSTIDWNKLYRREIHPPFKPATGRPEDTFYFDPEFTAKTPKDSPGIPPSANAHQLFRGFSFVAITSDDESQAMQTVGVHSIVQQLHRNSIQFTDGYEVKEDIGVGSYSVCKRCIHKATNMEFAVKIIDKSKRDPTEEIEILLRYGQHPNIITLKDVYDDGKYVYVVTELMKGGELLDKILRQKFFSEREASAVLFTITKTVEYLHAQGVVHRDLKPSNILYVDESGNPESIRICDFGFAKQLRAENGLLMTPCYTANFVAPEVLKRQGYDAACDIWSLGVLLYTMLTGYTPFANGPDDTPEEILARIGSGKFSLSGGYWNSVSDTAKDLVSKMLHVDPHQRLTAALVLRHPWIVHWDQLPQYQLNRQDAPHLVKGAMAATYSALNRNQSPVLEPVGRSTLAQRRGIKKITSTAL

Series 1
Target: Aurora kinase B (AURKB, Homo sapiens, UniProt Q96GD4)
UniProt Q96GD4, sequence (whole entry, looked up): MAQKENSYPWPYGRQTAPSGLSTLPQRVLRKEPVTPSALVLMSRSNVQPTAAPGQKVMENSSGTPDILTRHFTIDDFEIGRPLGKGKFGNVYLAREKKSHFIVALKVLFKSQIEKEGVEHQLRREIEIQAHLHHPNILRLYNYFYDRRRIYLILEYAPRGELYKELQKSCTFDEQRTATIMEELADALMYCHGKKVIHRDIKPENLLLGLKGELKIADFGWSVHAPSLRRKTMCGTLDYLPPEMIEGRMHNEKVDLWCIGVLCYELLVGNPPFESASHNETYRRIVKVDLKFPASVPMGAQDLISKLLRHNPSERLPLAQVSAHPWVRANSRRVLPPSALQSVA
Observed: enzyme activity
Mode: inhibitor
Tested at: 0.5 µM
Reference: control
Compound | remaining activity [%]
Oc1ccc(Nc2nc(-c3ccc(Cl)cc3)cs2)cc1 | 102
O=S(=O)(NCCNC/C=C/c1ccc(Br)cc1)c1cccc2cnccc12 | 97.8
COc1cc(Nc2c(C#N)cnc3cc(OCCCN4CCN(C)CC4)c(OC)cc23)c(Cl)cc1Cl | 83.1
CC#CC(=O)Nc1cc2c(Nc3ccc(F)c(Cl)c3)ncnc2cn1 | 101
O=C1NC(=O)C(c2c[nH]c3ccccc23)=C1c1c[nH]c2ccccc12 | 89.3
Cc1cncc2cccc(S(=O)(=O)N3CCCN(C(=O)CN)C[C@@H]3C)c12 | 34.9
COc1ccc(S(=O)(=O)N(CCO)c2ccccc2CN(C)CC=Cc2ccc(Cl)cc2)cc1 | 106
Cc1cc(Nc2nc(-c3ccccc3)nc3ccccc23)n[nH]1 | 52
Cc1ccc(NC2=CC(=O)c3sc(C)nc3C2=O)cc1 | 89.8
NC(=O)c1ccc(N(C(N)=O)c2c(F)cccc2F)nc1-c1ccc(F)cc1F | 91.3
CC(C)(C)n1nc(Cc2cccc3ccccc23)c2c(N)ncnc21 | 94.8
Nc1nccc(-c2c(-c3ccc(F)cc3)ncn2C2CCNCC2)n1 | 103
CCc1[nH]c(-c2ccc(OC)cc2)nc1-c1ccncc1 | 101
CCCC(=O)Oc1ccc2[nH]c(C(=O)c3cc4ccccc4[nH]3)cc2c1 | 97.1
O=C1Cc2c([nH]c3ccc([N+](=O)[O-])cc23)-c2ccccc2N1 | 85.9
Fc1ccc(-c2nc3n(c2-c2ccncc2)CCS3)cc1 | 98.5
Nc1ncnc2c1cnn2-c1ccccc1 | 99.2
CC[n+]1c(/C=C/N(C)c2ccccc2)n(-c2ccccc2)c2ccc(-c3nc4ccccc4s3)cc21 | 93.8
CC(=O)c1ccc(N2CCOCC2)cc1O | 91.5
N#CC(=C(N)Sc1ccc(N)cc1)c1ccccc1C(F)(F)F | 99.8
CSc1nc(-c2ccnc(N[C@@H](C)c3ccccc3)c2)c(-c2ccc(F)cc2)[nH]1 (racemic) | 98.4

Series 2
Organism: Sarcocystis neurona
Observed: parasite growth
Strain: GFP/luciferase reporter
Tested at: 10 µM
Setting: hit confirmation screen
SMILES | inhibition [%]
CCCCCCNC(=O)n1cc(F)c(=O)[nH]c1=O | 98.2
OCCN1CCN(CCCN2c3ccccc3Sc3ccc(C(F)(F)F)cc32)CC1 | 3.8
[H]/N=C(/NCCCCC)N/N=C/c1c[nH]c2ccc(OC)cc12 | 99.9
COc1cc2nc(N3CCN(C(=O)c4ccco4)CC3)nc(N)c2cc1OC | 97.7
O=c1[nH]cc(F)c(=O)[nH]1 | 99
Oc1c(Cl)cc(Cl)c(Cl)c1Cc1c(O)c(Cl)cc(Cl)c1Cl | 97.1
COc1cccc2c1C(=O)c1c(O)c3c(c(O)c1C2=O)C[C@@](O)(C(C)=O)C[C@@H]3O[C@H]1C[C@H](N)[C@H](O)[C@H](C)O1 | 99.7
CCc1nc(N)nc(N)c1-c1ccc(Cl)cc1 | 98.3
O=c1c(-c2ccccc2)c1-c1ccccc1 | 99.2

Series 3
Target: Calcium/calmodulin-dependent protein kinase type II subunit alpha (CAMK2A, Homo sapiens, UniProt Q9UQM7)
UniProt Q9UQM7, sequence (whole entry, looked up): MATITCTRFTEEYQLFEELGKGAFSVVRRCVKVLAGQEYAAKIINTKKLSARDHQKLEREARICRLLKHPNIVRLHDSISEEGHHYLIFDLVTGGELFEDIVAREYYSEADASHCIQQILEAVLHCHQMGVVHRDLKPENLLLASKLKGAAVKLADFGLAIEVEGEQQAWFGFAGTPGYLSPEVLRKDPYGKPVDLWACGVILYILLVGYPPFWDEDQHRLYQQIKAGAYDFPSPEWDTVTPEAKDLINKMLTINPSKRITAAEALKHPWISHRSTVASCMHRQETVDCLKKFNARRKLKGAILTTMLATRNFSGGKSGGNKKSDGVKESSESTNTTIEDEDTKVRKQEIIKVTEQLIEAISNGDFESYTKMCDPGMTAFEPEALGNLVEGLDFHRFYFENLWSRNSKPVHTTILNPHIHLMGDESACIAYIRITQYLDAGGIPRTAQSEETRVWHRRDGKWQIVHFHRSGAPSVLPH
Observed: enzyme activity
Mode: inhibitor
Tested at: 10 µM
Structure (SMILES) | inhibition
O=C(O)CNC(=O)c1ncc(-c2cccc(Cl)c2)cc1O | -12%
C[C@H](CCC(=O)NCC(=O)O)[C@H]1CC[C@H]2[C@@H]3C[C@H](O)[C@@H]4C[C@H](O)CC[C@]4(C)[C@H]3CC[C@]12C | -8%
O=c1[nH]cnc2c1ncn2[C@@H]1O[C@H](COP(=O)(O)OP(=O)(O)OP(=O)(O)O)[C@@H](O)[C@H]1O | -14%
COC(=O)Nc1ccc(C)c(NC(=O)OC)c1 | 30%
O=c1c(-c2ccc(O)cc2)coc2cc(O)ccc12 | 10%
O=C(/C=C/c1ccc(O)cc1)c1ccc(O[C@@H]2O[C@H](CO)[C@@H](O)[C@H](O)[C@H]2O)cc1O | 19%
CC(C)=CCCC(C)CCO (centres unmarked) | 8%
CCCC/C=C\CCCCCCCC(=O)O | -116%
COc1cnc(-n2cnc(C)n2)c2c1c(C(=O)C(=O)N1CCN(C(=O)c3ccccc3)CC1)cn2COP(=O)(O)O | -0.08% and -0.1%
O=C1O[C@H]([C@@H](O)CO)[C@H](O)[C@@H]1O | -15%

Series 4
SMILES: CNC(=O)Nc1ccc2c(c1)[C@@]1(CC2)OC(=O)N(CC(=O)N(Cc2ccc(F)cc2)[C@@H](C)C(F)(F)F)C1=O
Observed: cell-free assay
Technique: competition with immobilised ligand
Tested at: 1 µM
target | remaining binding
SRMS (Homo sapiens, UniProt Q9H3Y6) | 88%
PIK3C2B (Homo sapiens, UniProt O00750) | 99%
STK38 (Homo sapiens, UniProt Q15208) | 79%
CLK1 (Homo sapiens, UniProt P49759) | 82%
CLK4 (Homo sapiens, UniProt Q9HAZ1) | 78%
CAMK2A (Homo sapiens, UniProt Q9UQM7) | 100%
Ribosomal protein S6 kinase alpha-4, C-terminal kinase domain (RPS6KA4, Homo sapiens, UniProt O75676) | 88%
KIT (Homo sapiens, UniProt P10721, L576P) | 81%
LATS2 (Homo sapiens, UniProt Q9NRM7) | 68%
DCLK3 (Homo sapiens, UniProt Q9C098) | 81%
EGFR (Homo sapiens, UniProt P00533, G719S) | 100%
MET (Homo sapiens, UniProt P08581) | 100%
EGFR (Homo sapiens, UniProt P00533, del752-759) | 100%
CDKL5 (Homo sapiens, UniProt O76039) | 82%
KIT (Homo sapiens, UniProt P10721, A829P) | 100%
KIT (Homo sapiens, UniProt P10721, T670I/V559D) | 100%
CSNK1A1 (Homo sapiens, UniProt P48729) | 83%
Tyrosine-protein kinase ABL1, non-phosphorylated (ABL1, Homo sapiens, UniProt P00519, H396P) | 53%
BMX (Homo sapiens, UniProt P51813) | 99%
FGFR4 (Homo sapiens, UniProt P22455) | 98%
TNIK (Homo sapiens, UniProt Q9UKE5) | 87%
Ribosomal protein S6 kinase alpha-3, N-terminal kinase domain (RPS6KA3, Homo sapiens, UniProt P51812) | 75%

Repeated from above (series 3):
Structure (SMILES) | inhibition
O=C(/C=C/c1ccc(O)cc1)c1ccc(O[C@@H]2O[C@H](CO)[C@@H](O)[C@H](O)[C@H]2O)cc1O | 19%
COc1cnc(-n2cnc(C)n2)c2c1c(C(=O)C(=O)N1CCN(C(=O)c3ccccc3)CC1)cn2COP(=O)(O)O | -0.08% and -0.1%
CCCC/C=C\CCCCCCCC(=O)O | -116%
CC(C)=CCCC(C)CCO (centres unmarked) | 8%
O=c1[nH]cnc2c1ncn2[C@@H]1O[C@H](COP(=O)(O)OP(=O)(O)OP(=O)(O)O)[C@@H](O)[C@H]1O | -14%
O=C(O)CNC(=O)c1ncc(-c2cccc(Cl)c2)cc1O | -12%
C[C@H](CCC(=O)NCC(=O)O)[C@H]1CC[C@H]2[C@@H]3C[C@H](O)[C@@H]4C[C@H](O)CC[C@]4(C)[C@H]3CC[C@]12C | -8%
